Results from different studies.
Values joined by “and” are separate records of one study, mostly repeats; a detail may differ. ± gives the spread as reported.

`CC(C)=CCc1c(O)cc(O)cc1-c1cc2ccc(O)c(CC=C(C)C)c2o1` gave a cell survival of 81.58 ± 0.46% (3T3; cell growth, MTT; 7.25 µg/mL, 48 h).
For `Nc1ncnc2c1ncn2[C@@H]1O[C@@H]2COP(=O)(O)O[C@H]3[C@@H](O)[C@H](n4cnc5c(=O)[nH]cnc54)O[C@@H]3COP(=O)(O)O[C@H]2[C@H]1O`, “pathway fold enrichment” read 6.97 (HFF-1; RNA sequencing, measured: Reactome R-HSA-1169410; upregulated pathway; baseline: Zika virus alone).
`O=C1CCP(=S)(c2ccccc2)CC1`: “late apoptotic cells” 1.25% (HaCaT; Annexin V-FITC/PI flow cytometry; IC50, 72 h).
Under “G1 phase cells”, `CC(c1ccccc1)(c1ccc(O)cc1)c1ccc(O)cc1` is recorded as 72.5 ± 0.82% (HepG2 spheroids; Hoechst flow cytometry; 0.10 µM, 96 h).
`COc1ccc2c(c1)[nH]c1c(C)nccc12` gave a methylation reduction of 0% (DU-145; bisulfite pyrosequencing, measured: RASSF1A promoter CpG site 25; concentration not given; baseline: vehicle).
The GI50 of `CC(C)N1CCC(NC2CCN(c3cccc(-c4cc5cc(F)ccc5[nH]4)c3)CC2)CC1` is reported as 1440 nM (MDA-MB-435).
For `O=C(O)C(Cl)Cl`, “reversal of trafficking deficit” read -16.4% (primary rat hippocampal/cortical neuron-glia cultures; 1 µM, together with: 1 µM α-synuclein oligomers).
Under “wound closure reduction”, `COc1cc(C(=O)c2nc(-c3cccc4[nH]ccc34)c[nH]2)cc(OC)c1OC` is recorded as ~80% (PC-3/TxR; scratch wound healing; 5 nM, 24 h).
`CN1CCN(S(=O)(=O)c2cc([N+](=O)[O-])ccc2N(CCOS(C)(=O)=O)CCOS(C)(=O)=O)CC1` has an IC50 of 4140 nM (sample C B-ALL PDX cells; cell viability; ex vivo; 48 h, together with: AKR1C3 inhibitor 1 µM, 1 h pretreatment).
`COc1ccc2c(c1)CC[C@@H]1[C@@H]2CC[C@]2(C)[C@@H](NCCCCCCN3C(=O)C=CC3=O)CC[C@@H]12` gave an inhibition of ~68% (N2a; fluorescence signal, inhibitor; 300 nM, pretreatment, together with: BzATP plus UTP 300 µM).
The fold change of `O=C1N(Cc2ccccc2Cl)c2ccccc2C12NN=C(c1ccccc1)S2` (stereo not drawn) is reported as 1.58 (MDA-MB-468; gene expression array, measured: DPY30 mRNA; 10 µM, 12 h; baseline: untreated, down).
`Cc1ccc(-n2sc3ccccc3c2=O)cc1`: “CD4 surface recovery” 3.4 ± 2.2% (HIV-infected PBMCs; 1.0 µM, two donors).
`CCn1cc(-c2cc(Cn3ccoc3=N)cc3c2CCN([C@@H](C)c2cc(OC)ccn2)C3=O)c(C(F)(F)F)n1` gave an EC50 of 60.1 nM (A101D; cell growth, inhibitor; 120 h).
For `O=S(=O)(c1ccc(O)cc1)c1ccc(O)cc1`, “G1 phase cells” read 71.5 ± 4% (HepG2 spheroids; Hoechst flow cytometry; 1 µM, 24 h).
For `Cc1cccc(-c2cccc(C)n2)n1.Cc1cccc(-c2cccc(C)n2)n1.F[P-](F)(F)(F)(F)F.F[P-](F)(F)(F)(F)F.[Ru+2].c1ccc2cc(-c3nc4c5cccnc5c5ncccc5c4[nH]3)ccc2c1`, the phototoxicity index was 1 (SK-MEL-28; normoxia, together with: green light 523 nm, 100 J/cm2; baseline: dark over light EC50).
The LC50 of `COc1c(CCC[P+](c2ccccc2)(c2ccccc2)c2ccccc2)cc2c(c1OC)OCO2.[I-]` is reported as -4.45 log M (MDA-MB-435; SRB).
With `N.N.[Cl][Pt][Cl]` the TGI was 2490 nM (SK-MEL-28; cell growth, SRB; dark, 1% O2 hypoxia).
For `Cn1cncc1C1=CN(c2ncnc3[nH]cnc23)CCS1`, the CC50 was > 200000 nM (SNB-19; CNS cancer).
`Oc1cc(O)cc(-c2cc3ccc(O)cc3o2)c1` gave a cell survival of 43.25 ± 0.34% (MCF7; cell growth, MTT; 100 µg/mL, 48 h).
`CN1CCN(C2(CNC3CCN(c4cccc(-c5cc6cc(F)ccc6[nH]5)c4)CC3)CCC2)CC1` gave a GI50 of 498 nM (CCRF-CEM).
For `Nc1ncc(-c2nc(N3CCOCC3)nc(N3CCOCC3)n2)c(C(F)F)n1`, the GI50 was 92 nM (CCRF-CEM; 72 h).
With `COc1cc(CCC[P+](c2ccccc2)(c2ccccc2)c2ccccc2)c(OC)c2c1OCO2.[I-]` the LC50 was -4.52 log M (UACC-62; SRB).
The inhibition of `COc1cnc(OC)n2nc(NS(=O)(=O)c3c(OCC(F)F)cccc3C(F)(F)F)nc12` is reported as 0% (HEK293T; cytotoxicity, CCK-8; 1.56 µM, 72 h).
`O=C(Nc1ccc2[nH]nc(-c3ccncc3)c2c1)[C@@H]1CCN(CC(=O)N2CCN(c3ccc(-c4ncccn4)cc3)CC2)C1` gave a PI-positive cells of 7.5 count and 8.08 count (HCT116; IncuCyte; concentration not given, 28 (unit not given)).
For `CCN(CC)c1ccc(C=NNC(=O)CSc2nc3ccccc3c(=O)n2Cc2ccc(S(N)(=O)=O)cc2)c(O)c1`, the CC50 was > 100000 nM (BT-549; NCI five-dose screen).
`C/C=C(/C)C(=O)O[C@H]1C(C)=C2[C@H]([C@@H]1OC(=O)CCCCCCC)[C@@](C)(OC(C)=O)C[C@H](OC(=O)CCC)[C@@]1(O)[C@H]2OC(=O)[C@@]1(C)O` — result for “log2 fold change”: -0.513 (HEK293T; RNA-seq, measured: PON2 mRNA; 10 µM, 6 h; baseline: vehicle).
`COc1c(C)c2c(c(O)c1C/C=C(\C)CCC(=O)O)C(=O)OC2` gave an IC50 of 64.6 nM (A2780; cell proliferation).
`Oc1ccc(C2(c3ccc(O)cc3)c3ccccc3-c3ccccc32)cc1`: “S phase cells” 8.08 ± 2.46% (HepG2 spheroids; Hoechst flow cytometry; 0.1 µM, 24 h).
`Oc1cc(Cl)ccc1Oc1ccc(Cl)cc1Cl` — result for “point of departure”: 6.31 µM (HepG2; extracellular flux, measured: oxygen consumption rate; 6 h, distribution mode 2).
The fold change of `CC(C)C[C@H](NC(=O)[C@H](CCc1ccccc1)NC(=O)CN1CCOCC1)C(=O)N[C@@H](Cc1ccccc1)C(=O)N[C@@H](CC(C)C)C(=O)[C@@]1(C)CO1` is reported as -4850 (patient normal conditionally reprogrammed cells; RNA-seq, measured: NLRP2 mRNA; human; concentration not given; baseline: DMSO).
With `C[C@H]1[C@H](C)CC[C@]2(C(=O)O)CC[C@]3(C)C(=CC[C@@H]4[C@@]5(C)CC[C@H](O)C(C)(C)[C@@H]5CC[C@]43C)[C@H]12` the cell survival was 82.9 ± 0.42% (MCF7; cell growth, MTT; 1.8 µg/mL, 48 h).
The inhibition of `COc1ccc([C@H]2c3[nH]c4ccc(Cl)cc4c3CCN2C(=O)Oc2ccc(Cl)cc2)cc1` is reported as 49% (CD19+ B cells with PBMC; cytokine secretion, measured: TNF-α; 0.01 µM, 72 h, BioMAP BT system).
`Cc1nn(-c2nc3ccc(Cl)c(Cl)c3[nH]2)c(O)c1C1OC(=O)c2ccccc21` (stereo not drawn) has a viability of 9.7% and 14.4% and 10.7% and 17.4% and 19.7% (RAW-ISG; CCK-8; 200 µM).

Repeated from above:
`CN1CCN(S(=O)(=O)c2cc([N+](=O)[O-])ccc2N(CCOS(C)(=O)=O)CCOS(C)(=O)=O)CC1` has an IC50 of 4140 nM (sample C B-ALL PDX cells; cell viability; ex vivo; 48 h, together with: AKR1C3 inhibitor 1 µM, 1 h pretreatment).
`CC(C)=CCc1c(O)cc(O)cc1-c1cc2ccc(O)c(CC=C(C)C)c2o1` gave a cell survival of 81.58 ± 0.46% (3T3; cell growth, MTT; 7.25 µg/mL, 48 h).
